Measured values of several laboratories.
Numbered parts are unrelated; each lists some results of a single study. Changes are numbered by the printed parent chain.

Study 1
Target: Eukaryotic initiation factor 4A-I (EIF4A1, Homo sapiens, UniProt P60842, residues 1-406, full length assumed)
Chain of UniProt P60842 (whole entry, looked up): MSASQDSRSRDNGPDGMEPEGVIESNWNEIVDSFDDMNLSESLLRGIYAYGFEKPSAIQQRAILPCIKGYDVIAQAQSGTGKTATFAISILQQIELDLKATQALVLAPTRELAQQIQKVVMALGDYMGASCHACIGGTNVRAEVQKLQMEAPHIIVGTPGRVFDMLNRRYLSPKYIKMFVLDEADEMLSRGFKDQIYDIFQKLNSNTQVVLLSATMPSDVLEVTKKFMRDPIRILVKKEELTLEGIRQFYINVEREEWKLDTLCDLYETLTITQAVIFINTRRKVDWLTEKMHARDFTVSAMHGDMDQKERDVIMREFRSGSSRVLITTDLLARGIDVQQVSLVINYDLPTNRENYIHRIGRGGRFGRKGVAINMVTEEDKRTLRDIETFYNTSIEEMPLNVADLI
Method: RNA Bind-n-Seq
Form: RNA
Medium: in vitro
Concentration: 15 pmol
Notes: 4-mer, random 30-nt RNA, single round
With: DMSO vehicle, 2 mM AMP-PNP
Reference: input library
Direction: higher = stronger binding
`UGUC` has a 4-mer enrichment of 0.893 fold.
`AGCG` has a 4-mer enrichment of 1.02 fold.
The 4-mer enrichment of `UCAA` is reported as 1.4 fold.
With `AUUU` the 4-mer enrichment was 0.942 fold.
The 4-mer enrichment of `ACAG` is reported as 1.06 fold.
With `AGUA` the 4-mer enrichment was 0.843 fold.
The 4-mer enrichment of `GAUG` is reported as 0.965 fold.
For `UUCC`, the 4-mer enrichment was 1.32 fold.
For `AUGA`, the 4-mer enrichment was 1.07 fold.
`UUCA` gave a 4-mer enrichment of 0.913 fold.
For `AAUU`, the 4-mer enrichment was 0.862 fold.
`GUCC` gave a 4-mer enrichment of 0.981 fold.
`GAUU` has a 4-mer enrichment of 0.933 fold.
The 4-mer enrichment of `GGUC` is reported as 1.08 fold.
With `CACA` the 4-mer enrichment was 0.911 fold.
With `AUAG` the 4-mer enrichment was 0.776 fold.
For `GGUG`, the 4-mer enrichment was 0.942 fold.
The 4-mer enrichment of `GGGC` is reported as 0.72 fold.
`AAGG` gave a 4-mer enrichment of 1.12 fold.
`ACCG` has a 4-mer enrichment of 1.46 fold.
`AGAG` has a 4-mer enrichment of 0.993 fold.
With `UUUA` the 4-mer enrichment was 0.881 fold.

Study 2
Target: ABI1, truncated, D143A, DHFR fusion (Arabidopsis thaliana)
Method: DHFR PCA, deep sequencing
Medium: yeast
Notes: methotrexate growth selection, single substitutions
With: (+)-ABA 1.4 µM
Reference: wild-type fitted maximum
Direction: higher = stronger binding
Parent: PYL1, truncated, DHFR fusion (Arabidopsis thaliana); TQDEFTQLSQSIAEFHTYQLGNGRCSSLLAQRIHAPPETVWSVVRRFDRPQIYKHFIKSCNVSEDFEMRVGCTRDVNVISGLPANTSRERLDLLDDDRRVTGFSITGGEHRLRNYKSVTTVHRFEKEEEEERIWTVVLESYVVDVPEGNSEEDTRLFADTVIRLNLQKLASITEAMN
`D159V`: “relative binding score” -4.78%.
`T154L`: “relative binding score” -12.1%.
Under “relative binding score”, `G71A` is recorded as -1.26%.
Under “relative binding score”, `Q51F` is recorded as 11.1%.
For `N177G`, “relative binding score” read 58.8%.
`D153K`: “relative binding score” -7.46%.
For `D144I`, “relative binding score” read -25.2%.
`K58M`: “relative binding score” 8.2%.
`V44C` — result for “relative binding score”: -7.44%.
`D75P` — result for “relative binding score”: -3.01%.
Under “relative binding score”, `D144Q` is recorded as 5.52%.
`I12C`: “relative binding score” 19.1%.
`N85F`: “relative binding score” 61.4%.
Under “relative binding score”, `D65G` is recorded as 51%.
For `G81A`, “relative binding score” read 2.35%.
`G107D` — result for “relative binding score”: 30.7%.
For `I57G`, “relative binding score” read -2.33%.
Under “relative binding score”, `E139W` is recorded as 34.8%.
For `I57C`, “relative binding score” read -0.164%.
Under “relative binding score”, `Y53M` is recorded as 3.15%.
For `S59I`, “relative binding score” read -0.122%.
Under “relative binding score”, `A175I` is recorded as 6.48%.

Study 3
Target: Histone acetyltransferase KAT6A, both winged helices, GST fusion (KAT6A, Homo sapiens, UniProt Q92794, residues 1-181)
Method: protein binding microarray
Form: double-stranded DNA, one strand shown
Medium: in vitro
Concentration: not given
Notes: 8-mer, flanks averaged, mean of 2 arrays, mostly near background
Reference: not given
Direction: higher = stronger binding
Residues (chain): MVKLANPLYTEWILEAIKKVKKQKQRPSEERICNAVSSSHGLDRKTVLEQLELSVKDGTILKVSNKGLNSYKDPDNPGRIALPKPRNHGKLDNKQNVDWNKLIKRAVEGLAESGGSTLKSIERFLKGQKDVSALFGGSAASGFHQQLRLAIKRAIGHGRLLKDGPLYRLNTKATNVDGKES
`AACGTAGG` has an E-score of -0.195.
`AACGCGCG` gave an E-score of 0.392.
With `AGACTGTC` the E-score was -0.0707.
With `CCAATAAG` the E-score was -0.0877.
`CCAGTCCA` has an E-score of -0.196.
`ACAGCCCT` gave an E-score of -0.152.
`ATCCCCAC` has an E-score of -0.245.
With `GATCAATC` the E-score was 0.066.
For `GCATATCC`, the E-score was -0.0202.
With `ACTTCGAT` the E-score was 0.0258.
With `CCACGTAC` the E-score was -0.199.
With `GGTGTGTA` the E-score was 0.0323.
For `ACGTGATA`, the E-score was 0.00483.
`CGCCCTAG` gave an E-score of 0.0173.
`ACAGACGG` has an E-score of 0.0529.
`ATCACTTC` gave an E-score of -0.158.
For `CAACCCTA`, the E-score was -0.165.

Study 4
Target: Interferon regulatory factor 5, full length, phosphomimetic (IRF5, Homo sapiens, UniProt Q13568-2, residues 1-514, K96S/S451D/S453D/S456D/S462D)
Method: protein-binding microarray
Form: double-stranded DNA, one strand shown
Medium: in vitro
Concentration: 250 nM
Notes: 60-bp whole probe
With: salmon DNA 0.4 mg/ml
Reference: random background probes
Direction: higher = stronger binding
Constant ends, left off below: GCCTAGCAC … GTCTTGATTCGCTTGACGCTGCTG
`CAAACAGAGACCCGGCAAGTGTGCTAG` has a log fluorescence of -0.249 z-score.
`GACGATATCAGACTGGAGGCGTGCTAG` gave a log fluorescence of 0.422 z-score.
With `GACGATATCAGTATCGAGACGTGCTAG` the log fluorescence was 3.53 z-score.
The log fluorescence of `GCCGATTTCAGACTGGAGACGTGCTAG` is reported as 0.295 z-score.
For `ATGTTTGTCACTCTCAGAATGTGCTAG`, the log fluorescence was 0.712 z-score.
`GACGATCTCGGACTGGAGACGTGCTAG` gave a log fluorescence of -0.131 z-score.
The log fluorescence of `ATAGATTTCAGTTCCGATTAGTGCTAG` is reported as 2.54 z-score.
`TCATATTTTTTTGTAATACTGTGCTAG` has a log fluorescence of 1.09 z-score.
The log fluorescence of `TTAGGACTGGGGCTCGGTTAGTGCTAG` is reported as -0.452 z-score.
With `GACGATATCAGTATGGAGACGTGCTAG` the log fluorescence was 1.15 z-score.
The log fluorescence of `TTTCCTATGTCATTTACATTGTGCTAG` is reported as 2.57 z-score.
`TTAGGTAACCTTCTCCTTTAGTGCTAG` has a log fluorescence of -0.0866 z-score.
For `TTAGATCTCAGTTTAGATTAGTGCTAG`, the log fluorescence was 0.312 z-score.
`TTAAGTCTCGGTTTCGGTTAGTGCTAG` has a log fluorescence of 9.4 z-score.
`GACGGTCTCGGTCTCGTGACGTGCTAG` has a log fluorescence of 0.0699 z-score.
`GAGTTTCTATTTTCTGAATGGTGCTAG` has a log fluorescence of 5.73 z-score.
With `ATGTAATTCCTGCCTGAGCTCGTGCTA` the log fluorescence was 0.11 z-score.
`TACGAACTGGGGTATCGAGACGTGCTA` has a log fluorescence of 0.203 z-score.
`GAGGGACTGCTTCTCCTGACGTGCTAG` gave a log fluorescence of -0.805 z-score.
`AAGCTTCTTTTTTATTCTAAAGTGCTA` has a log fluorescence of 1.17 z-score.
For `TCAGCTTTCCTTTATGTACTGTGCTAG`, the log fluorescence was 1.33 z-score.

Study 5
Target: RING finger protein unkempt homolog, zinc fingers 1-6, SBP tag (UNK, Homo sapiens, UniProt Q9C0B0, residues 30-357)
Chain of UniProt Q9C0B0 (30-357, looked up): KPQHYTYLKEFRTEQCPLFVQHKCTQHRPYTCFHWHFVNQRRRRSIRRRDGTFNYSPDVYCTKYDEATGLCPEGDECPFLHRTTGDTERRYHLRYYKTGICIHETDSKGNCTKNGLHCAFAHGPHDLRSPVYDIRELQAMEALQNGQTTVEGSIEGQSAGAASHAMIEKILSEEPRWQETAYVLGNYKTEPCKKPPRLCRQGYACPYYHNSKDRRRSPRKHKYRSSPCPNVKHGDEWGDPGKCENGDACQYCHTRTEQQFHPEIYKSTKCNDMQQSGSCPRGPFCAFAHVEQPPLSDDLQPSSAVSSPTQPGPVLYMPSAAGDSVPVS
Method: RNA Bind-n-Seq
Form: RNA
Medium: in vitro
Concentration: 100 nM
Notes: RNA with constant flanks, vertebrate orthologous sites, ends assumed
Reference: input RNA pool
Direction: higher = stronger binding
With `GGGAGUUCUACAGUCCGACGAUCAGCUUCCGGCGACAUUUGGCCUGGCCUUUCAGCGUAUGAUAACAGUCCGAGGUCACCCCACAGUCCUUCUAUUGCCACCCCGCCUAGUCAGAGUUCAUCUUGCUCUGAUGCCCCUUUGCUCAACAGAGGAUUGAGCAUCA` the bound/input enrichment was 0.583 ratio.
`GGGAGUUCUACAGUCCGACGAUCCAGUAGCGCUUCAGCCAGCAGUUGUAGAAUGCUAUUUAUUCGUGUCUGUAAGUUUGUACAUAACCCUAACCUCGUAGGCAAGUUUGAGUUUUCUUUCCUUUGAUGCAGAUGCUUGGGUUUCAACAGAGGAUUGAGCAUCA` has a bound/input enrichment of 0.456 ratio.
The bound/input enrichment of `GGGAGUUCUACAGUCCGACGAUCUCCUAGCACUUUGAUAAAAAGUGUGGACUGGUUGCUUGUAUUUUCUUUAUUCUUUUUAAUCAGCUUUAUUAUGUACGCUACUAUGCGAACUGAGAGCAUUCGAUGGCUAAUUCCAGGACACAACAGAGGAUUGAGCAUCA` is reported as 0.378 ratio.
`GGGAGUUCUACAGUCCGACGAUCUUCAGGCACAACUGACUGGUUCACAGCAUUCCUUACACAGUUAUCUAUCAAACGCAAGUGUGGUUAAUUUUCAGGAAACAAGCAGGCAGUCAUCUUUAUCCUGUAGCCCUAUUGGAGAUUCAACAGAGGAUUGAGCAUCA` has a bound/input enrichment of 1.04 ratio.
`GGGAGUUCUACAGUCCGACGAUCCCUAAAGCUUUGUGUUUGGCUGCACCUGCAUAAGCUGCUACAAAUAGAAUAAAGAAUUCAUAGCCUGUAUCUAUCAUUUAGAUGCAUGGAAAAAUGGGCUUUGCACACAAUGGGUUUGAACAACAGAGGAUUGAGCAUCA` gave a bound/input enrichment of 1.84 ratio.
`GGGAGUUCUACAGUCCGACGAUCAUUUUAAAUGUGUCAAAUGCUGGAUGUAACAUUAAACCAUCAUUUAGAAUAGAUGUUAAUUUGUUAUAAUUAAGCUACAAAUAGGUUACCUUAAACCAGAGAUGCACUGCCCUUGUCUGACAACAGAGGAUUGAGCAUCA` has a bound/input enrichment of 0.659 ratio.
With `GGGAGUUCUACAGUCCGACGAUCGUGGGGAUGAGGGUGGGAUGGGAAAGGGAUGUAUGGAUGUUACUGGCAUUUUUAAGUGUUUAGAGUUUUUUGGGGUUUUGGGUUUUUUGUUUUGUUUUGUUUUUCCUUGUUUUCUUUUUUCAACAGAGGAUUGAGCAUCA` the bound/input enrichment was 2.03 ratio.
`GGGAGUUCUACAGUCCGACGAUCUAUUUAAAAUAUAUUUAGUUGUAUUUAGUGACUUCAUUUCUAGUUCCUUGUUCAUUAAAGUAGCUCAUUUCUAUUAUUGCCUUUUUUGAGGAUUGGAACAAAUUGAAGGUUUGUGCAGUACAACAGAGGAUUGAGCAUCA` has a bound/input enrichment of 0.823 ratio.
`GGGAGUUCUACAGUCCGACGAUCAAAAAUGCCUUUCCUUUUUUAAAAGUUAAGCGGAUCAUCUGAGAAGAGUACAAGGUUAUUAGAAUGCCUUUGUGGUUAAGUCACAGUAUAUUGUUUUUGGUUGUUUGAUAGGUUUAUUUUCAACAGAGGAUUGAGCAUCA` has a bound/input enrichment of 0.392 ratio.
`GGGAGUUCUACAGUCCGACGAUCAGAAAACUUUAGUCAAGAAUCUGAAAGUAGAAAUGCUGGUUCCUGGUUGUCCUCCUCUCUAAGAAAUAGAUGCACACCUUUAUUUUCAAGGAGACGUCGAGAAGGAAGAGAUGAAUCUACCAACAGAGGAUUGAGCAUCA` gave a bound/input enrichment of 0.435 ratio.
`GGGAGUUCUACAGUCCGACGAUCAUCUCAUAUUUAAUUUGCUCUUUUGUAUGUAUUAUGUUGUAAAUCUAUUAUGUAACAGUUUACAACAGUCCUUAUAAAAUUUUUAAAAUGGCUACAUCUGCAUAUGGUCUGAAUUCAAGACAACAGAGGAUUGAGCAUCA` gave a bound/input enrichment of 0.367 ratio.

Study 6
Target: CCNB1, cyclin fold, Cln2 fusion (human)
Method: yeast growth competition, sequencing
Medium: yeast
Notes: weak parent motif
Reference: not given
Direction: higher = stronger binding
Parent: DBF4B docking peptide (human); LGYLYLLLTQSLW
Under “normalised enrichment score”, `L12A` is recorded as 0.293.
Under “normalised enrichment score”, `W13A` is recorded as 0.0632.
Under “normalised enrichment score”, `S11A` is recorded as 0.444.
Under “normalised enrichment score”, `L7A` is recorded as 0.18.
Under “normalised enrichment score”, `G2A` is recorded as 0.371.
`L6A` — result for “normalised enrichment score”: -0.15.
Under “normalised enrichment score”, `T9A` is recorded as 0.686.
